Measurements collected from several papers.
Each numbered part is a random draw from the data of one study; scales do not carry over between parts. Positions count from the first letter of the parent shown.

Set 1 — target: CCNA2, cyclin fold, Cln2 fusion (human); technique: yeast growth competition, sequencing; medium: yeast; notes: strong parent motif; reference: not given; reading: higher = stronger binding; endpoint: normalised enrichment score; parent: viral docking peptide; TSVRRALFTGGSD
S2F: 4.96
R4H: 1.73
T9D: 5.78
S2P: 5.99
A6R: 6.77
R5D: -0.44
F8P: 0.111
V3I: 5.07
G11I: 6.08
G10Q: 6.42
T9S: 6.12
G10L: 6.08
T9M: 6.34
S2V: 5.47
L7Q: 0.104
T9C: 5.9
S2M: 5.93
F8Y: 2.25
R4D: 0.121
G11W: 5.71
T9R: 6.18
G10P: 5.95
V3G: 1.33
R4N: 3.15
G11C: 6.2

Set 2 — target: tungstate, free oxyanion; technique: microfluidic competitive inhibition; medium: in vitro, cell-free expressed; tested at: not given; reading: lower = stronger binding; endpoint: oxyanion analog dissociation constant
Notes: derived from inhibition constants, unchanged parent 2230 nM
Parent: PafA, mature enzyme, eGFP fusion (Elizabethkingia meningoseptica, UniProt Q9KJX5); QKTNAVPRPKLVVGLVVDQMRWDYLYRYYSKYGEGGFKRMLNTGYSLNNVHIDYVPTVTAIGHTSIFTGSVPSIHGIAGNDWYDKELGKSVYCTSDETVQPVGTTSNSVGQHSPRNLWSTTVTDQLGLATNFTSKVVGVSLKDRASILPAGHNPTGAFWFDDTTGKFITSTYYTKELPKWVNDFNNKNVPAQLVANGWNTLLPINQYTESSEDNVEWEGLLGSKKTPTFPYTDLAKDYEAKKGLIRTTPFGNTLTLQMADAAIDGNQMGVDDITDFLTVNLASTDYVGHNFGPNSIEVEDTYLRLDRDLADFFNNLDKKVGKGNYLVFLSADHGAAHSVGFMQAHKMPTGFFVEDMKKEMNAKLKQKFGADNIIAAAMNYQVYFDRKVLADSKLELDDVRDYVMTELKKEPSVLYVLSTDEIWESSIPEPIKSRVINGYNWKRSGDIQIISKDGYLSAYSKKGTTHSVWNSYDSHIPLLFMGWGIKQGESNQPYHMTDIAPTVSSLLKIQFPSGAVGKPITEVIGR
D23G: 1320 nM
T104G: 3290 nM
P190G: 2040 nM

Set 3 — technique: protein binding microarray; molecule type: double-stranded DNA, one strand shown; medium: in vitro; tested at: not given; reference: not given; reading: higher = stronger binding; endpoint: E-score
Target: Histone acetyltransferase KAT6A, winged helix 1, GST fusion (KAT6A, Homo sapiens, UniProt Q92794, residues 1-85)
Notes: 8-mer, flanks averaged, mean of 2 arrays, mostly near background
Target sequence (chain): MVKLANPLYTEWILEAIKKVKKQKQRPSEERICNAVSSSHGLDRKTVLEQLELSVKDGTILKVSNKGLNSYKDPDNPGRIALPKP
CTTCGATA: 0.0553
AATCCACG: 0.0426
CGGTTTCC: 0.254
ATTACTAG: 0.046
ATCCGGGG: 0.101
CAAAGTCA: -0.123
AAAGTAAT: 0.0589
CGCTAAGC: 0.279

Set 4 — technique: RNA Bind-n-Seq; molecule type: RNA; medium: in vitro; tested at: 100 nM; reference: input RNA pool; reading: higher = stronger binding; endpoint: bound/input enrichment
Target: RING finger protein unkempt homolog, zinc fingers 1-6, SBP tag (UNK, Homo sapiens, UniProt Q9C0B0, residues 30-357)
UniProt Q9C0B0, sequence (30-357, looked up): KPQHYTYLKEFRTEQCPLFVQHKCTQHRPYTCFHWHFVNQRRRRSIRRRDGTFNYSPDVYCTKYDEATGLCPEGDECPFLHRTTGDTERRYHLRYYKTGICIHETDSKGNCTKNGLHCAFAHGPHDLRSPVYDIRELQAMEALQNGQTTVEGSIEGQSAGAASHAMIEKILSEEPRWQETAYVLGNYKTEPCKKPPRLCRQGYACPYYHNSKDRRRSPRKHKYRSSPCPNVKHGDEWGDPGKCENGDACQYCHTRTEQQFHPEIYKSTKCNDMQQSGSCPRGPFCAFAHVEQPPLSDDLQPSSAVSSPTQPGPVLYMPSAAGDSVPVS
Notes: RNA with constant flanks, vertebrate orthologous sites, ends assumed
All sequences stand within: GGGAGUUCUACAGUCCGACGAUC … CAACAGAGGAUUGAGCAUCA
AAGUCAAUGCAGUCCCACUUACUCAAGCUGCAGCUGAAAGGCUAUCCCAGUACGUGUUGGUAGUUCCUGAGAGAGUUAUAGCUGGUGUUGCCUUGUGGUCUACCCCUUGUUUCAGGCCUC: 0.206 ratio
AAAUGCGAUGGUUGAAGGCUCUGAGCUCAAAAAGAUUCGAUCCAACUCUAGGGUGUAUCAUCGAUACUUCCUUUUAGAUGCGGAUAUGCAAUCUCUACGCUGGGAACCUUCAAAAAAGGA: 0.173 ratio
UGGGUUACUCCUAUUAUUAUCAAGUAGCUGGAAUUGUGAAGGUCGGAGUAGUUAGAUCUUAGCUUUUAUUCCUUAUUUUUUUUGUAUUACUCUCCAUGUGUAUAAAUUAUUGAUCAUGUU: 5.33 ratio
AGUAGUAUUAAAGAAGAAACAUUUUUGUCUUCCUUUAUCAUUUAAUCCCUACCUAAUACCUAGACUCCUUUUUAAAAUUUCAGACUUCACUGCUCUUUGAAUUGAUAAUUCCAAUUUUCA: 0.641 ratio
UGAGAGAGAGAUUCCUGUGAUUGCUAAUAUUUAAUUUGCUCUUUUUAAGAUAUGUUAAUCUGCAGUUCUUAAUAAAACUGAUAUGCUGGCAUUCCUUACCUAAGGAGGAUUGGCUUUGUA: 0.341 ratio
AGGUAGUCUGGGUAGGGGUGAGCAUUAACUUAUAAAGGAAUGAAAUGCUAAAAAUCCUAUUAGUACUAAGUUUAGUGGGAGAAUUUACAUAAACUCUUUUUACAUAAUUCUAAAAUGAAA: 0.587 ratio
ACCUCUGAACCCCAUAUCUUCUGUUUCAUAGUGCAGAAGUAUUCUUUGCAUUUAUAUUAUUAAUGGACUUGUUUUAAUUUUAGAGAAACUUUCAGUACAGAUACUGUGAGCUGUCAUGGA: 1.24 ratio
UCCUCAACUUGUUCUAGCUUGUGAUCCUUCAAAGUUGGGUCAGGCAUUAGUGCUAGGUACUAGGAAUUUUCAUUUCUCUAUUGCCAUUGAUCAGAGAGACAGACAUGAAAAACAGGAAUA: 0.364 ratio

Set 5 — technique: DHFR PCA, dose-response; medium: yeast; notes: Hill fit, mean, not affinity; together with: (+)-ABA, dose series; reading: lower = more sensitive; endpoint: ABA EC50
Target: ABI1, truncated, D143A, DHFR fusion (Arabidopsis thaliana, UniProt P49597)
Parent: PYL1, truncated, DHFR fusion (Arabidopsis thaliana, UniProt Q8VZS8); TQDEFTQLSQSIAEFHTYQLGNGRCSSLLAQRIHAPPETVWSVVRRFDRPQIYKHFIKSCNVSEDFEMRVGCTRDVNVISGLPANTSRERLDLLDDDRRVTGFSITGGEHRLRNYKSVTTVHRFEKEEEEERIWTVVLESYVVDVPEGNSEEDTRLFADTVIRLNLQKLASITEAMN
E130Q: 2.02 µM
S140T: 667 µM
I105M: 40.8 µM
V44M: 52.3 µM
V136F: 9.05 µM
S42M: 7.53 µM
R132H: 1.09 µM
R98M: 6.75 µM

Single results of other studies — observed: binding; technique: phage display NGS; molecule type: peptide; tested at: concentration not given; notes: normalized abundance; reference: input library
Target: UDP-N-acetylglucosamine--peptide N-acetylglucosaminyltransferase 110 kDa subunit (OGT, Homo sapiens, UniProt O15294)
One construct used (O15294 1-1046): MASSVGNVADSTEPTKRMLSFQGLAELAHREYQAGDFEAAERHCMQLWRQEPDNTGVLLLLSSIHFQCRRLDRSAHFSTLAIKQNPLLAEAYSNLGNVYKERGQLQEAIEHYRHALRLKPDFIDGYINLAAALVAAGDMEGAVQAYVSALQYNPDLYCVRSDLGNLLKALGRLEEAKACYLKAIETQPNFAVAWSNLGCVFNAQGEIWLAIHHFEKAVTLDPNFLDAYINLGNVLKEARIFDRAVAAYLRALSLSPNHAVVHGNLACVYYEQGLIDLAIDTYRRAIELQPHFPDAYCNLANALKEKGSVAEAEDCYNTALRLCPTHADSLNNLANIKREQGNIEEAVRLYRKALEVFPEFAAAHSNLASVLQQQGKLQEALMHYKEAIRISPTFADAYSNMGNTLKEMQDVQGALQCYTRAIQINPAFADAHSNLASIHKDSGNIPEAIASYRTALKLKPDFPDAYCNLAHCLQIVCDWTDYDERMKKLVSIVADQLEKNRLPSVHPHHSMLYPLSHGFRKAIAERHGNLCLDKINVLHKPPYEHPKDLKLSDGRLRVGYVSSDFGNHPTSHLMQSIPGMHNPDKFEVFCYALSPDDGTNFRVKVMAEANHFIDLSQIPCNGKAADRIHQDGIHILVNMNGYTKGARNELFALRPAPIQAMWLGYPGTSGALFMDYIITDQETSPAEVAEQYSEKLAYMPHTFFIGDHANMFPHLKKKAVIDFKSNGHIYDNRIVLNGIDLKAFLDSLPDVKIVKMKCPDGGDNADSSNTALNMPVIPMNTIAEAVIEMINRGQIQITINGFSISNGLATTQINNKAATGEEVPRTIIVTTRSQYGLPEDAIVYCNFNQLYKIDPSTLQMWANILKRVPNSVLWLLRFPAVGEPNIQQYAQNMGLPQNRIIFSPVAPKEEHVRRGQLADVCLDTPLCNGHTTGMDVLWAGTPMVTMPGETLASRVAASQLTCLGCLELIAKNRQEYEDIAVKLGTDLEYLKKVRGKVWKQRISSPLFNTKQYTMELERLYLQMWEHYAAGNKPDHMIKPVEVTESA
VLIFPPQYQMFISSY
enrichment fold change: 10.6

FDHRDYHHYEQFHH
enrichment fold change: 8.85

ERNFTHHVHRDPHR
enrichment fold change: 5.59
